# Assay results pooled from the literature.
# Every numbered part comes from another study and shows a few of its results, in no order.

# Sample 1
# Target: Fragile X messenger ribonucleoprotein 1, C-terminal low-complexity region (Fmr1, Mus musculus, UniProt P35922)
# Technique: RNA Bind-n-Seq
# Form: RNA
# Medium: in vitro
# Tested at: 200 nM
# Setting: whole 134-nt RNA, ends assumed
# With: 150 mM KCl
# Reference: input library
# Reading: higher = stronger binding
Sequence,log2 enrichment
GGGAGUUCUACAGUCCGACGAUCAAGUCCUGUGCUACACAUCGUAUGUACCGAAUCAAACCCAAACCCAAACCCCCAAAAAAGUAUUAUGUUACGCCGUUCGGAUCUGCACUUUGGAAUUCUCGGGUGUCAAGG,-0.441
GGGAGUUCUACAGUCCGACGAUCCCUCAAGUCCUGUGCUACACAUCGUAUGUACCGAAUCGGGCGGGCGGGCGGGGAAAGUAUUAUGUUACGCCGUUCGGAUCUGCACUUCCAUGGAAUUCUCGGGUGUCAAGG,0.852
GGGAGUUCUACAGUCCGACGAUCCACAGACAACACGCACCCACACAGACACAGAGGGAAGGGGUUGGAAUGGGGACAGGGUGCACAGCAGGGCGGGGUAGGACCCCAGCCCCUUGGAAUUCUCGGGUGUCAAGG,1.22
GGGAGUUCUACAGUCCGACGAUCAAGUCCUGUGCUACACAUCGUAUGUACCGAAUCGGGGUUUGGGGUUUGGGGAGGGGAAAGUAUUAUGUUACGCCGUUCGGAUCUGCACUUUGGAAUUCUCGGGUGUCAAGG,1.2
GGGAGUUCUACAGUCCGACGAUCUCCUGUGCUACACAUCGUAUGUACCGAAUCAAACCCAAACCCCCCCAAAUUUUUUUAAAAAAGUAUUAUGUUACGCCGUUCGGAUCUGCAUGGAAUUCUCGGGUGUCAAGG,0.0509
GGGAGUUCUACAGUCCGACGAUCGCAGGAAGUAAAAACAAAUGGAAAUGCUUCGGAUAGUGGCAGGGGUGGGGGUUGCUAAGGAAAGGGGGGGAUGGGAGUGGGUAAAGAGUUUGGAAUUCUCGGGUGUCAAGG,-0.0333
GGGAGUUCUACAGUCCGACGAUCAGUCCUGUGCUACACAUCGUAUGUACCGAAUCGGGGAAAAGGGAAAAGGGAAAAGGGAAAGUAUUAUGUUACGCCGUUCGGAUCUGCACUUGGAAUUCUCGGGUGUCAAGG,0.197
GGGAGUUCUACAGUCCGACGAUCUUGUCUUCUGAGAUGUUGGGCCCCUCUUGGGAUGGAGAUGAAGCAGAAUCCACUGGUGAAAUCAUUAGACUUGGAGACACAGCACACACCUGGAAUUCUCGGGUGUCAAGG,0.238
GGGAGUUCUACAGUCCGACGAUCACCAUGCAGGUGGGCAUCUUUGGGAAGUGGGGCAAGGGGGGGAUAGGGAGGAGGGUAACACUUUGGGAACAGGUGGUCCCAGGUCGUUUCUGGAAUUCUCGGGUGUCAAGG,0.812

# Sample 2
# Target: Centromere-binding protein 1, full length, N-terminal tag (CBF1, Saccharomyces cerevisiae, UniProt P17106, residues 1-351)
# UniProt P17106, sequence (whole entry, looked up): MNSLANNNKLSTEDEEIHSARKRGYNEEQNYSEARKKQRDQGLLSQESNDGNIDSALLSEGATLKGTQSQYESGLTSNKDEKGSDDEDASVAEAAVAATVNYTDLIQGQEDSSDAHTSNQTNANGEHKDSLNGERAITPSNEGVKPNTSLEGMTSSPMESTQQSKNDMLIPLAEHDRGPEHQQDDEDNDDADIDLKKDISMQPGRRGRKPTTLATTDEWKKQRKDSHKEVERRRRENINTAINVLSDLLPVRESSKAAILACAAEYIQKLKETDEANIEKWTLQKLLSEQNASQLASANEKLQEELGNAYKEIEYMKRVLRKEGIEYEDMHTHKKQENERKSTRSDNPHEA
# Technique: protein-binding microarray
# Form: double-stranded DNA, one strand shown
# Medium: in vitro
# Tested at: 0.8 µM
# Setting: whole 60-bp probe, no competitor
# Reading: higher = stronger binding
Sequence,fluorescence intensity
TGTACGAAGCTATCTGTCACGTTTATAGTAGTTAGGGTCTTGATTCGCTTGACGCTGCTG,1500 a.u.
TGTACGAAGCTATATGATGTTAATATAGTAGTTAGGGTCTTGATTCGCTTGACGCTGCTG,543 a.u.
CCTAACTACTATATTAACATCAGATAGCTTCGTACAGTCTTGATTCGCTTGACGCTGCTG,523 a.u.
CTAACAACTAAAAATCACGAAAACAAAATGATATTCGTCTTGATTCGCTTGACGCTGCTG,582 a.u.
CTACTTCTGATGCTTTAGCTGATGGTTTACGCATTCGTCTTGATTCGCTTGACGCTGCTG,519 a.u.
GAAAAAGCAGTTTCATACGTGCCACAGCTTTGGTAGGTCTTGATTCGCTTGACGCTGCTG,519 a.u.
CTAAGGTAGTTGGGTCAGCTGAAGTAGTTGGGTTTCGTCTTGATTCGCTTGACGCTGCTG,597 a.u.
GAAATGAAGAACGCACACGTTCCGTACTAGAGATAGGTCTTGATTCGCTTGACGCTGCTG,562 a.u.
CTATTTTGATGGAATCTGCTGATTTTTTTACCTTTCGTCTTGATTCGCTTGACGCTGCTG,583 a.u.
CTATATATTTTGTTACGCGTGCATTTTCTTGTTTTCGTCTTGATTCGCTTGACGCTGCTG,609 a.u.
GAATACTGGTCAGAGCACGATTGATGGTGCCATTAGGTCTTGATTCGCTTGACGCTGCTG,530 a.u.
CTAGGGATGGCTCATCACGAACAGCAAACTGAATTCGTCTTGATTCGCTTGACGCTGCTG,552 a.u.
GAAACTTTGCATTATCACATCAGACGGAATTGTTAGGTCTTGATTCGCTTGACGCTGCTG,606 a.u.
CTAAATAGTAAACGTCACCCCGAGGTTTAAAAATTCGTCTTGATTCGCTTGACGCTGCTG,511 a.u.
CTAGCGAAGTAGAGTGACACGTCCATTACCCAGTTCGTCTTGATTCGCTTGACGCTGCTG,542 a.u.
GAAACAGGGAAAGTACACGTGAAATTTTAAACTTAGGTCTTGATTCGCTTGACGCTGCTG,2180 a.u.

# Sample 3
# Target: Histone acetyltransferase KAT6A, both winged helices, GST fusion (KAT6A, Homo sapiens, UniProt Q92794, residues 1-181)
# Technique: protein binding microarray
# Form: double-stranded DNA, one strand shown
# Medium: in vitro
# Tested at: not given
# Setting: 8-mer, flanks averaged, mean of 2 arrays, mostly near background
# Reference: not given
# Reading: higher = stronger binding
# Construct (chain): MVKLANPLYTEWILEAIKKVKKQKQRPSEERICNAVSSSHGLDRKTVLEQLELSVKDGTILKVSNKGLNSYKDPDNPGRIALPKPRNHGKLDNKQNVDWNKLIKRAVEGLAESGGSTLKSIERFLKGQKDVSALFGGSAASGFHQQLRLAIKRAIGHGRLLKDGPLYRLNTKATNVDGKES
Sequence,E-score
TAACGGAA,0.233
CCGGGATA,0.158
CAGGGGAG,-0.118
GGCCTACC,-0.056
CCTCCGAA,-0.0801
CAAAGCGA,-0.078
CCGAGCTC,0.0814
AGAACGTC,-0.113
CATATAAA,0.0818
AGAACGAA,-0.153
ACCACTCA,-0.181
CTTTAATA,0.00201
AATGTGCC,0.0818
AATAGTAA,-0.187
TAAACTGA,-0.0385
AAACCAAT,-0.189
TATAGGAA,-0.0527
CGGGCCCA,-0.0059
GCAATACA,0.183
TAACCCAA,-0.193
GGTCGCTA,0.12
AAGATTTA,-0.0896

# Sample 4
# Target: RING finger protein unkempt homolog, zinc fingers 1-6, GST-SBP tag (UNK, Homo sapiens, UniProt Q9C0B0, residues 30-357)
# Technique: RNA Bind-n-Seq
# Form: RNA
# Medium: in vitro
# Tested at: not given
# Setting: RNA with constant flanks, human-mouse chimeric sites, ends assumed
# Reference: input RNA pool
# Reading: higher = stronger binding
# Target sequence (chain): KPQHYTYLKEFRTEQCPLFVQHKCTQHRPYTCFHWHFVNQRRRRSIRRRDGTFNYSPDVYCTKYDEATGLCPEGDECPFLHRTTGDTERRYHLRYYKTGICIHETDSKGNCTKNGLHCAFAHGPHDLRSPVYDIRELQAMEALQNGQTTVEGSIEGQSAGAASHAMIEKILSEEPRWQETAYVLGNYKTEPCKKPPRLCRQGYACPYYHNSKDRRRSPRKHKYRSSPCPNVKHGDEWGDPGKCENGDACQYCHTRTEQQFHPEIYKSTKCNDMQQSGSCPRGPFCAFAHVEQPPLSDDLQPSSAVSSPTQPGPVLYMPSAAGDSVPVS
Sequence,bound/input enrichment [ratio]
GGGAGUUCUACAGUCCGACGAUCAAAUUUCCCCUCCUGAGACCUCCUCCGAAGUUGGAGUCUCUUAUAGAUGCCUCAUCCCCUGUUAGCGUUUUAGUUUGGACCACCCAGCCUUGGACAAUUCCCGCCAACCAGGCAAUUUGCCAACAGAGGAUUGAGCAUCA,1.13
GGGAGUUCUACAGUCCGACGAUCGGAAGUACAUUAAUGGAGAUUGAUGGUGACAAAGGCAAGCAGGGCGGGCCCACCUACUACAUAGACACUAAUGCUCUCCGCGUGCCCAGGGAGAACAUGGAGGCCAUCUCACCACUCAAGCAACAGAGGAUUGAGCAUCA,0.559
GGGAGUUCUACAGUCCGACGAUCCAACCUCAGAGCCCAGACUUCCUGGAUAUUACCAACCCCAAAGCCGUAUUAGAAAAUGCAUUGAGAAACUUCGCCUGUCUGACGACUGGAGAUGUGAUUGCUAUCAACUACAAUGAGAAGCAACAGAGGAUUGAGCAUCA,0.519
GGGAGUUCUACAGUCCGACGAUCCUGGCCUGGCCCUCCCCAGGGGCCUCCUUUCGUAUAGUCACUGCUUCUGCUACGGAUACUUUCAGCUGCAACUCCCUACUGGGUGGGGCACCCAUUUGAGGCAGGGUGUUUUGGUACCCUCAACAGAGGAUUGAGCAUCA,0.362
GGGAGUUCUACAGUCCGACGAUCAAAGGCAAAAAGGGCAGUUCAUAAAUAUCAUAAGUAACUCUGGGGGAGGGAAAUUCUGUUCUUUUGUUUAAUUUUCCCCCAAAUGAAGCCAAAGUGUGUGUUGAAGAACUGAGAAAAAAUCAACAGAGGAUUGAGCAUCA,0.421
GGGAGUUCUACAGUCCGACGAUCGCAGGAUCUUCUAAGUACCAGUGGGACAUUAUGAAAUCCCUUGGGCUCUCUGAUGACGAGAUAGUAAAGUUUUCUGAAGCAGAGCACUGGCUUGAUUAUUUCCCACCACUGGCUAUUCAGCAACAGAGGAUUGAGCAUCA,0.18
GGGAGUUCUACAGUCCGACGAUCAGAGAUAAGACAUCCAGGAACAUGCGAGGCUCCCGGAUGAAUGGGUUUCCAAGUCCCACUCACAGCGCCCACUGUAGCUUCUACCGAACCAGAACCUUGCAGGCACUGAGUAAUGAGAAGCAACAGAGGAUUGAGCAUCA,0.0674
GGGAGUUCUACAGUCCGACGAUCCGAGACAAGACAUCCAGGAACAUGCGAGGCUCCCGGAUGAAUGGGUUUCCAAGUCCCACUCACAGCGCCCACUGUAGCUUCUACCGAACCAGAACCUUGCAGGCACUGAGUAAUGAGAAGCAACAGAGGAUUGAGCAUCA,0.0648

# Repeated from above (sample 2):
Sequence,fluorescence intensity
CTAGCGAAGTAGAGTGACACGTCCATTACCCAGTTCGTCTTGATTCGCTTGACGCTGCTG,542 a.u.
CTAGGGATGGCTCATCACGAACAGCAAACTGAATTCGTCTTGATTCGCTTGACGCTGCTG,552 a.u.
CTATTTTGATGGAATCTGCTGATTTTTTTACCTTTCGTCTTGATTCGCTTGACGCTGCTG,583 a.u.
GAATACTGGTCAGAGCACGATTGATGGTGCCATTAGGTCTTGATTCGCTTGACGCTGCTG,530 a.u.
CTACTTCTGATGCTTTAGCTGATGGTTTACGCATTCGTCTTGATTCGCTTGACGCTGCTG,519 a.u.
CCTAACTACTATATTAACATCAGATAGCTTCGTACAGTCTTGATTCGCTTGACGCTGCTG,523 a.u.
GAAACTTTGCATTATCACATCAGACGGAATTGTTAGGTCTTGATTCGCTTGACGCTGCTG,606 a.u.
TGTACGAAGCTATCTGTCACGTTTATAGTAGTTAGGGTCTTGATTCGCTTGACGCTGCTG,1500 a.u.
